Measurements pooled from the literature.
Compare with care: the assays were run in different laboratories. ± gives the spread as reported.
POLB: DNA polymerase beta (POLB, Homo sapiens, UniProt P06746)
UniProt P10636, sequence (whole entry, looked up): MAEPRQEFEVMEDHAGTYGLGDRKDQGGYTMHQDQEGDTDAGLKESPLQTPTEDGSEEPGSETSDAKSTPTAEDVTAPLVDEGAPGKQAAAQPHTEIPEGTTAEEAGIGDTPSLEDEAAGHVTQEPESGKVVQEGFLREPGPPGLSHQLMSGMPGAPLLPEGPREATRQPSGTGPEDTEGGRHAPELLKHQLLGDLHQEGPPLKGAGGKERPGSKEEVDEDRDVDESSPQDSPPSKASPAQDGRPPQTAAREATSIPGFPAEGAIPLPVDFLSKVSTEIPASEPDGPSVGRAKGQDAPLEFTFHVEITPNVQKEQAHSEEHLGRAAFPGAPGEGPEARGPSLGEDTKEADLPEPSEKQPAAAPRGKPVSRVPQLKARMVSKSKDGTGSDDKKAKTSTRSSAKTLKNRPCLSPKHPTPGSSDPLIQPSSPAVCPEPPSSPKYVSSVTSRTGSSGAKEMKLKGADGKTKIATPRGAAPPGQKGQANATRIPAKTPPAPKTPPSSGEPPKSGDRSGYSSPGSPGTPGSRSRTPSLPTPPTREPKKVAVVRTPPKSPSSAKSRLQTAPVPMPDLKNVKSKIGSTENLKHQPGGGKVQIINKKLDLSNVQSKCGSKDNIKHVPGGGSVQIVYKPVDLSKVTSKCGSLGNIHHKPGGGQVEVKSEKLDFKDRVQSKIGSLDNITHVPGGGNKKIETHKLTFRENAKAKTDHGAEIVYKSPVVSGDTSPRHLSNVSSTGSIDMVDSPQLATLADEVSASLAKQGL
UniProt Q9Y478, sequence (whole entry, looked up): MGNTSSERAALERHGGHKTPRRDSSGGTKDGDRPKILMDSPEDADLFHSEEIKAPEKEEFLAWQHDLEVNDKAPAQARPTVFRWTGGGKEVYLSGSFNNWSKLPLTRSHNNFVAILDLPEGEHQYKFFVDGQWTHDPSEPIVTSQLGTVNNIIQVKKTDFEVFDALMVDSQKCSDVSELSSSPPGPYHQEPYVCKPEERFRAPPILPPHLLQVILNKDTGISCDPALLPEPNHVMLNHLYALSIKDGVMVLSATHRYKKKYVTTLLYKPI
UniProt P08581, sequence (whole entry, looked up): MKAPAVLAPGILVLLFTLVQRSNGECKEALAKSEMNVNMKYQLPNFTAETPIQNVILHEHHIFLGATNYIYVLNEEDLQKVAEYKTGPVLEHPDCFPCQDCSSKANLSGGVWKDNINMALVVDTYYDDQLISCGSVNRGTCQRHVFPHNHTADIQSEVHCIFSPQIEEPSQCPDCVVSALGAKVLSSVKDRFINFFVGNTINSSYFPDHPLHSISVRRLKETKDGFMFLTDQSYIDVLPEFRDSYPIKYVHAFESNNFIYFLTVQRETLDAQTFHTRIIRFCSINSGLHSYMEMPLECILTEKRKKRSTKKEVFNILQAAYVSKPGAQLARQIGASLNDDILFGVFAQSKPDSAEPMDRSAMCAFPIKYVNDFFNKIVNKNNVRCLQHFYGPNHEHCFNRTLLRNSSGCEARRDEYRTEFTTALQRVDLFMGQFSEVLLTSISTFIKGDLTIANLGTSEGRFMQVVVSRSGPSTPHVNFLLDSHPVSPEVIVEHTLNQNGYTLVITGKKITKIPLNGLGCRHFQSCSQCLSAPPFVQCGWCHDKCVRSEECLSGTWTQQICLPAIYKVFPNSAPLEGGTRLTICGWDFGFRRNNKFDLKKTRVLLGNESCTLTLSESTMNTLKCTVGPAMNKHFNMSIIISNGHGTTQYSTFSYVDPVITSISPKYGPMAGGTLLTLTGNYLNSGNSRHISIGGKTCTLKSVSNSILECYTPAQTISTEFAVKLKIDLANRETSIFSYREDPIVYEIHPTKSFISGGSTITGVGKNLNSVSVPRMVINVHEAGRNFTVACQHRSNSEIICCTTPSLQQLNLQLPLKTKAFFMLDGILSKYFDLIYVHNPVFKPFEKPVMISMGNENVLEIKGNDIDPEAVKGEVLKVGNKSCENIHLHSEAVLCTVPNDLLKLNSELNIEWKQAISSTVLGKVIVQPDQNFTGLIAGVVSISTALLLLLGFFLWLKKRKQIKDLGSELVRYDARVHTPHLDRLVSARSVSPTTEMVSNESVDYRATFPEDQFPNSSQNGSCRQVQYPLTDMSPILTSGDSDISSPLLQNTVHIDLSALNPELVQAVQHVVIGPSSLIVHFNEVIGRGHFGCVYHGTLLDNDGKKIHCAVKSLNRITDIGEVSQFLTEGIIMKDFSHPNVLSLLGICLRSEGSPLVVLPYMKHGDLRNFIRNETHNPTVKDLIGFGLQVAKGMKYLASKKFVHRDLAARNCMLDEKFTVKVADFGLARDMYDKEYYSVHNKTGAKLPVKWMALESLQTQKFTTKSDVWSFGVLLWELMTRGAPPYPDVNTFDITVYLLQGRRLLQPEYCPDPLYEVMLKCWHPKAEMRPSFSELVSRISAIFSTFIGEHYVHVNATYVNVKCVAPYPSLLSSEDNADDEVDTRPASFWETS
UniProt Q9UM07, sequence (whole entry, looked up): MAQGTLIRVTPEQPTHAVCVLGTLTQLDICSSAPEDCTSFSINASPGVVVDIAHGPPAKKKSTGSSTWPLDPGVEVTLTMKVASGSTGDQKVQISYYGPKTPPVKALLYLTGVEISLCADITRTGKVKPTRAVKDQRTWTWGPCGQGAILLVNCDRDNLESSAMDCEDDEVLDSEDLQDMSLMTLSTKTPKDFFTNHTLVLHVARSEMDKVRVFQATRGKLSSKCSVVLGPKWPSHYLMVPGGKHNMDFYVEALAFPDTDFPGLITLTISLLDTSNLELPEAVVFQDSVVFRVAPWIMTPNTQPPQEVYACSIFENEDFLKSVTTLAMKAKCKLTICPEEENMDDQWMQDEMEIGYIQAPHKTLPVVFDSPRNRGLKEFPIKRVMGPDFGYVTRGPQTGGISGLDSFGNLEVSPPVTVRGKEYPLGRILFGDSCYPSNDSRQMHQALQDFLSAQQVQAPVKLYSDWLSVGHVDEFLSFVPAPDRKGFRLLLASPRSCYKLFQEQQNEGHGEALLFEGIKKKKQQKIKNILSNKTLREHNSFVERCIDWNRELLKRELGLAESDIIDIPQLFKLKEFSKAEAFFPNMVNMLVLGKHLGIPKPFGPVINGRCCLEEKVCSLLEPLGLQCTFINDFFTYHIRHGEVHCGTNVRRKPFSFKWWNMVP
UniProt P10145, sequence (whole entry, looked up): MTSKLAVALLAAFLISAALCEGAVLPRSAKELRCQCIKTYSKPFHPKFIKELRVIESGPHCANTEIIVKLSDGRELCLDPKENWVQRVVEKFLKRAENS
UniProt P63073, sequence (28-217, looked up): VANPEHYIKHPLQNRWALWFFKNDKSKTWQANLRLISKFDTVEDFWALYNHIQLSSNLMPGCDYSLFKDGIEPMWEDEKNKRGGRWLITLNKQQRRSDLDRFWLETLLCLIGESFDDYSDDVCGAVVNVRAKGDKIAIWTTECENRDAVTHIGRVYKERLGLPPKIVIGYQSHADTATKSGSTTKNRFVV
UniProt P22629, sequence (whole entry, looked up): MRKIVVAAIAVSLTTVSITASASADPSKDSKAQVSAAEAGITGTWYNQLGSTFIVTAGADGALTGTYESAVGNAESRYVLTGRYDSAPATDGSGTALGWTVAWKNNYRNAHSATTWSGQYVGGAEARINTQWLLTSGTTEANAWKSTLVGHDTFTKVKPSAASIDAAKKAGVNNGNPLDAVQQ
UniProt Q8NEB9, sequence (whole entry, looked up): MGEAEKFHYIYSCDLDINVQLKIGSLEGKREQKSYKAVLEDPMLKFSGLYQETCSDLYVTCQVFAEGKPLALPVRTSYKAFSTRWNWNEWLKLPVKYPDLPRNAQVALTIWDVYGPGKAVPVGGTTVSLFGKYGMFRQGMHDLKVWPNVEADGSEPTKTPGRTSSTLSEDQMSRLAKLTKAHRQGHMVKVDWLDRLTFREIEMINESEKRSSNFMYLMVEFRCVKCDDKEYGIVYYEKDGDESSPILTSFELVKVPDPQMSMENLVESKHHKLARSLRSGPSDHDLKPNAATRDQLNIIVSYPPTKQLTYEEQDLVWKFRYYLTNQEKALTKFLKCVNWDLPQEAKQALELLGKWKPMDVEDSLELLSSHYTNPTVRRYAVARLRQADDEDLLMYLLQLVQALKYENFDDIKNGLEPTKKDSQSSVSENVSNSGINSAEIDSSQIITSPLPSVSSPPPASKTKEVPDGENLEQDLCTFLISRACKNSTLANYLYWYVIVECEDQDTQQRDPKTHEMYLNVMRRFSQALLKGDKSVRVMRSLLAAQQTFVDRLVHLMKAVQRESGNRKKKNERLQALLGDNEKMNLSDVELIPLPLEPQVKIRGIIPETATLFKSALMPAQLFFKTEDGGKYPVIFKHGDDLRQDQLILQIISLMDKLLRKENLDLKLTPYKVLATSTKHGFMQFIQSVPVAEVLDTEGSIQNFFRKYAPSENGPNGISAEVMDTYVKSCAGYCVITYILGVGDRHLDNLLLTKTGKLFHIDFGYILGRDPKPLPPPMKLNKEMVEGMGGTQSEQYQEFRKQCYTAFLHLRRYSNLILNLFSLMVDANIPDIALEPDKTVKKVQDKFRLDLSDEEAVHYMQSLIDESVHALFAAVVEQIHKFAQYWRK
UniProt P54646, sequence (whole entry, looked up): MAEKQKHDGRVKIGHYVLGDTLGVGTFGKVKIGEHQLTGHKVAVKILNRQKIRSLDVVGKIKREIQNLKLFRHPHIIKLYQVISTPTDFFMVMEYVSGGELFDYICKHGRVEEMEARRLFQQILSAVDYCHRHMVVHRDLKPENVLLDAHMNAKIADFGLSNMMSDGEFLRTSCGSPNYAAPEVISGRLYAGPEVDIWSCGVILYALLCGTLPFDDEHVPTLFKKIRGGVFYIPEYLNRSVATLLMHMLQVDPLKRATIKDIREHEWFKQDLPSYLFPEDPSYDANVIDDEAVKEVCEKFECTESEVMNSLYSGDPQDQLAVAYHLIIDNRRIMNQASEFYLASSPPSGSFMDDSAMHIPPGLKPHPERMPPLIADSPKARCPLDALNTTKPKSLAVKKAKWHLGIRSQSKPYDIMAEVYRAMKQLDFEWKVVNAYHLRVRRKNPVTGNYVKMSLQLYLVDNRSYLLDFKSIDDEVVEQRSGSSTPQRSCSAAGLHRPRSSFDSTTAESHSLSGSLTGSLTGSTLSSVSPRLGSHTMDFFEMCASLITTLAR

With `CC(=O)[C@@]1(O)CC[C@H]2[C@@H]3CCC4=CC(=O)CC[C@]4(C)[C@H]3CC[C@@]21C` the Kd was 1.44 ± 0.14 µM (mouse anti-cortisol Fab 17; native MS titration; 200 mM ammonium acetate; 1.5% DMSO, 0.5% methanol, added: Fab 100 nM).
`CC(C)C[C@@H]1NC(=O)[C@H](Cc2ccc(O)cc2)NC(=O)[C@H](C(C)C)NC(=O)[C@@H]2CSSC[C@@H]3NC(=O)[C@H](CO)NC(=O)[C@@H]4CSSC[C@H](NC(=O)[C@@H]5CCCN5C(=O)[C@H](Cc5ccccc5)NC(=O)CNC(=O)[C@H](CC(N)=O)NC(=O)[C@H](CCCCN)NC(=O)[C@H](Cc5ccc(O)cc5)NC(=O)[C@H](CSSC[C@H](NC(=O)[C@@H]5CCCN5C1=O)C(=O)N[C@@H](Cc1ccccc1)C(=O)N[C@@H]([C@@H](C)O)C(=O)N[C@@H](C)C(=O)N[C@@H](C)C(=O)N[C@@H](C)C(=O)NCC(=O)N4)NC(=O)[C@H](C(C)C)NC(=O)[C@H](CCCCN)NC(=O)[C@H](CO)NC(=O)[C@H](CCCCN)NC3=O)C(=O)NCC(=O)N[C@@H](CCC(=O)O)C(=O)N[C@@H](CO)C(=O)N2` gave a Kd of 14.7 ± 1.8 µM (POPC/POPE lipid membrane; membrane binding, surface plasmon resonance; POPC/POPE 80:20 vesicles; pH 7.4).
With `Cc1c(C)n(-c2ccc(Br)cc2)c2ncnc(N3CCC(C(N)C(=O)N4CCCC4)CC3)c12` (centres unmarked) the Kd was 2.82 µM (Protein-arginine deiminase type-4 (PADI4, Homo sapiens, UniProt Q9UM07); surface plasmon resonance).
`Nc1nc2c(ncn2[C@H]2C[C@H](O)[C@@H](COP(=O)(O)OP(=O)(O)[C@@H](F)P(=O)(O)O)O2)c(=O)[nH]1` has a Kd of 10 ± 1 µM (POLB; substrate, quench-flow kinetics; pH 8.0, 37 °C, incorporation opposite C in gapped DNA).
The Kd of `CC(=O)c1cc(O)c(=O)c(O)cc1C` is reported as 30000 µM (Mg2+; binding, absorption spectroscopy; low-affinity site).
The Kd of `COc1ccc2c(c1)C=C1Cn3c-2c(C2CCCCC2)c2ccc(cc23)C(=O)NS(=O)(=O)N(C)CCOCCN(C)C1=O` is reported as 6.31 µM (Probable UDP-N-acetylglucosamine--peptide N-acetylglucosaminyltransferase SPINDLY (SPY, Arabidopsis thaliana, UniProt Q96301); binding, biolayer interferometry; added: SPY wild-type).
With `CC(=O)N[C@@H]1[C@@H](O[C@@H]2O[C@H](C(=O)O)[C@@H](OS(=O)(=O)O)[C@H](OS(=O)(=O)O)[C@H]2OS(=O)(=O)O)[C@H](OS(=O)(=O)O)[C@@H](COS(=O)(=O)O)O[C@H]1N=[N+]=[N-]` the Kd was 117 µM (Interleukin-8 (CXCL8, Homo sapiens, UniProt P10145); ligand displacement, FP).
`Nc1nc2c(ncn2C2CC(O)C(COP(=O)(O)OP(=O)(O)C(F)(Cl)P(=O)(O)O)O2)c(=O)[nH]1` (mixture of isomers) has a Kd of 833 ± 345 µM (POLB; nucleotide binding, substrate, single turnover kinetics; 37 °C, dG misincorporation opposite A).
With `CC[C@H](C)[C@@H]1NC(=O)[C@H](C)NC(=O)[C@H](C)NC(=O)[C@H]([C@@H](C)O)NC(=O)[C@H](Cc2ccccc2)NC(=O)[C@@H]2CSSC[C@@H]3NC(=O)[C@H](C(C)C)NC(=O)[C@H](CCCCN)NC(=O)[C@H](CO)NC(=O)[C@H](CCCCN)NC(=O)[C@@H]4CSSC[C@H](NC(=O)[C@H](CO)NC(=O)[C@H](CCC(=O)O)NC(=O)CNC(=O)[C@H](CSSC[C@H](NC(=O)CNC1=O)C(=O)N[C@@H](CO)C(=O)N4)NC(=O)[C@@H]1CCCN1C(=O)[C@H](Cc1ccccc1)NC(=O)CNC(=O)[C@H](C)NC(=O)[C@H](CCCCN)NC(=O)[C@H](Cc1ccc(O)cc1)NC3=O)C(=O)N[C@@H](C(C)C)C(=O)N[C@@H](Cc1ccc(O)cc1)C(=O)N[C@@H](CC(C)C)C(=O)N1CCC[C@H]1C(=O)N2` the Kd was 4.85 ± 0.27 µM (POPC/POPE lipid membrane; membrane binding, surface plasmon resonance; POPC/POPE 80:20 vesicles; pH 7.4).
The Kd of `N=C1N[C@H]2[C@H](CS[C@H]2CCCCC(=O)NCCNC(=O)c2cc3cc(F)c(O)c(F)c3oc2=O)N1` is reported as 2.95 µM (Streptavidin (Streptomyces avidinii, UniProt P22629); binding, FP; pH 7.4).
With `Cc1cc(NCCOC(C)C)c2nc(N3CCOC[C@H]3C)cc(=O)n2c1` the Kd was 0.0219 µM (Phosphatidylinositol 3-kinase catalytic subunit type 3 (PIK3C3, Homo sapiens, UniProt Q8NEB9); binding, SPR).
The Kd of `CC[C@H](C)[C@H](NC(=O)[C@H](CC(=O)O)NC(=O)[C@H](CO)NC(C)=O)C(=O)N[C@@H](CSCc1ccccc1)C(=O)N[C@@H](CC(=O)O)C(=O)N[C@@H](Cc1ccccc1)C(=O)N[C@H](C(=O)N[C@@H](CC(C)C)C(=O)N[C@@H](CCCCN)C(=O)N[C@@H](CC(N)=O)C(=O)N[C@@H](Cc1ccc(O)cc1)C(=O)N1CCC[C@H]1C(N)=O)C(C)C` is reported as 8.3 ± 1.3 µM (CREB-binding protein, KIX domain (CREBBP, Homo sapiens, UniProt Q92793); binding, fluorescence polarisation).
The Kd of `C[n+]1cn(C2OC(COP(=O)(O)OP(=O)([O-])C(Cl)(Cl)P(=O)(O)OP(=O)(O)OCC3OC(n4cnc5c(=O)[nH]c(N)nc54)C(O)C3O)C(O)C2O)c2nc(N)nc(O)c21` (centres unmarked) is reported as 0.0128 ± 0.00028 µM (Eukaryotic translation initiation factor 4E, residues 28-217 (Eif4e, Mus musculus, UniProt P63073); binding, fluorescence quenching titration; pH 7.2, 20 °C).
`OC[C@H]1Oc2cc(I)cc3c2[C@@H](OC3)[C@H]1O` gave a Kd of 250 µM (Galectin-8 (LGALS8, Homo sapiens, UniProt O00214); cell-free assay, FP).
For `CN(C)CCCSC(=S)N1CCN(C(=O)/C=C/c2coc3ccccc3c2=O)CC1`, the Kd was 150 µM (RNA; binding, biolayer interferometry).
For `OC(Cc1cc(-c2ccc(C(O)C(F)(F)F)s2)sc1-c1ccc(-c2sc(-c3ccc(C(O)C(F)(F)F)s3)cc2CC(O)C(F)(F)F)s1)C(F)(F)F` (centres unmarked), the Kd was 0.96 ± 0.2 µM (Microtubule-associated protein tau, 0N4R isoform, aggregated (MAPT, Homo sapiens, UniProt P10636); binding, fluorescence; 10% sucrose tau fraction).
With `Cc1cn([C@H]2C[C@H](O)[C@@H](COP(=O)(O)OP(=O)(O)C(F)(F)P(=O)(O)O)O2)c(=O)[nH]c1=O` the Kd was 34.2 ± 8.3 µM (POLB; dNTP binding, substrate, single-turnover kinetics; single-nucleotide gapped DNA; 37 °C, wild type, correct incorporation, added: dTTP opposite template A).
With `Cc1ccc(Oc2nc3cc(-c4ccc5c(ccn5C)c4)c(Cl)cc3[nH]2)cc1C(=O)O` the Kd was 0.085 µM (PRKAA2/PRKAB1, phosphorylated; with gamma1 (Homo sapiens, UniProt P54646+Q9Y478); binding, circular dichroism titration; α2β1γ1 complex).
With `N#Cc1cccc(-c2ccc(=O)n(Cc3cccc(-c4ncc(OCC5CCN(CC(=O)N6CCN(c7ccc8c(c7)C(=O)N(C7CCC(=O)NC7=O)C8=O)CC6)CC5)cn4)c3)n2)c1` (centres unmarked) the Kd was 0.17 µM (Hepatocyte growth factor receptor (MET, Homo sapiens, UniProt P08581); binding).
For `Cc1cn(C2CC(O)C(COP(=O)(O)OP(=O)(O)C(Cl)P(=O)(O)O)O2)c(=O)[nH]c1=O` (mixture of isomers), the Kd was 55.5 ± 13.6 µM (DNA polymerase beta (POLB, Homo sapiens, UniProt P06746, I260M); substrate, single turnover kinetics; 37 °C).

A few entries again:
With `N#Cc1cccc(-c2ccc(=O)n(Cc3cccc(-c4ncc(OCC5CCN(CC(=O)N6CCN(c7ccc8c(c7)C(=O)N(C7CCC(=O)NC7=O)C8=O)CC6)CC5)cn4)c3)n2)c1` (centres unmarked) the Kd was 0.17 µM (Hepatocyte growth factor receptor (MET, Homo sapiens, UniProt P08581); binding).
With `Cc1cc(NCCOC(C)C)c2nc(N3CCOC[C@H]3C)cc(=O)n2c1` the Kd was 0.0219 µM (Phosphatidylinositol 3-kinase catalytic subunit type 3 (PIK3C3, Homo sapiens, UniProt Q8NEB9); binding, SPR).
The Kd of `C[n+]1cn(C2OC(COP(=O)(O)OP(=O)([O-])C(Cl)(Cl)P(=O)(O)OP(=O)(O)OCC3OC(n4cnc5c(=O)[nH]c(N)nc54)C(O)C3O)C(O)C2O)c2nc(N)nc(O)c21` (centres unmarked) is reported as 0.0128 ± 0.00028 µM (Eukaryotic translation initiation factor 4E, residues 28-217 (Eif4e, Mus musculus, UniProt P63073); binding, fluorescence quenching titration; pH 7.2, 20 °C).
